{"data": "Results gathered from unrelated publications", "note": "Numbered parts are unrelated; each lists some results of a single study. Values joined by “and” are separate records of one study, mostly repeats; a detail may differ.", "chain of UniProt Q99640 (whole entry, looked up)": "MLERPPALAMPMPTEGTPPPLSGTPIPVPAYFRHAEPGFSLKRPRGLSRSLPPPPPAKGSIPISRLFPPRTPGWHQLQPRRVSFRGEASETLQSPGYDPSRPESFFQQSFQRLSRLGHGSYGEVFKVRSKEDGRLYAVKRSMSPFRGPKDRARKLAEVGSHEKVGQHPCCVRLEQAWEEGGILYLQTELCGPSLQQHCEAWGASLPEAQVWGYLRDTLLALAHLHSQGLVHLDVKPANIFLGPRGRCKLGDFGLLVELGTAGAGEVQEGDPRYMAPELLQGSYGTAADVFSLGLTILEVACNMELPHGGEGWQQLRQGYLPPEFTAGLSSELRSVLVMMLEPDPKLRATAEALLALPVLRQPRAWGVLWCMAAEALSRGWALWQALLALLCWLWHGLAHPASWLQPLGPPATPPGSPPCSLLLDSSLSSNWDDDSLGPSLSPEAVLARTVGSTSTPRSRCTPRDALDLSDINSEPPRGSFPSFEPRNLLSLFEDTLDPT", "chain of UniProt P41145 (whole entry, looked up)": "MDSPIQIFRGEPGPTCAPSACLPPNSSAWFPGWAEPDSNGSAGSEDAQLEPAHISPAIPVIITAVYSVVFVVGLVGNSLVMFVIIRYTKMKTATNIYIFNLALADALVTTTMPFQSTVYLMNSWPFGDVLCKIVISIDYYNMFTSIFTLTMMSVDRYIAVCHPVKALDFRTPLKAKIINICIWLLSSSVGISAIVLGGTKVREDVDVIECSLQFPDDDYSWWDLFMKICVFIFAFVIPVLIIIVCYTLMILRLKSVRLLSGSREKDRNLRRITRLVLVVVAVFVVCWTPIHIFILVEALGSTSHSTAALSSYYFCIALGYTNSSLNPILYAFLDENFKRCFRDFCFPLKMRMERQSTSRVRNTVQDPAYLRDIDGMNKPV"}
{"data": "Block 1", "Compound": "Cn1cc(-c2cccc(CN3CCC4(CC3)COc3c4ccc4c3CN([C@H]3CCC(=O)NC3=O)C4=O)c2)cn1"}
{"test system": "rat", "setting": "intravenous, 1 mg/kg, approximate dose", "MRT(0-t)": "1.99 h and 1.95 h"}
{"test system": "rat", "setting": "oral, 3 mg/kg, approximate dose", "MRT(0-t)": "5.43 h and 5.01 h and 3.33 h"}
{"test system": "cynomolgus monkey", "setting": "oral, 3 mg/kg", "MRT(0-t)": "7.67 h and 8.1 h and 8.32 h"}
{"test system": "cynomolgus monkey, plasma", "setting": "oral, 3.02 mg/kg", "MRT(0-t)": "8.03 h"}
{"test system": "rat, plasma", "setting": "oral, 2.98 mg/kg", "MRT(0-t)": "4.59 h"}
{"data": "Further values, each from its own experiment"}
{"SMILES": "C=CCN1C(=O)C(O)(C(=O)O)Oc2cc(F)ccc21 (stereo not shown)", "tested on": "Triticum aestivum", "test": "fresh weight", "setting": "soil surface spray, 150 g ai/ha, 21 days, pre-emergence crop safety", "measurement": "inhibition", "value": "5.5% and 6% and 8.5%"}
{"SMILES": "N=C(N)NCCCCCCN1CCC23c4c5ccc(O)c4OC2c2nc4ccccc4cc2CC3(O)C1C5 (stereo not shown)", "test": "modified Racine scale", "test system": "C57BL/6J mice, male", "setting": "intracerebroventricular, 100 nmol, 65 min", "scale": "direction not given", "measurement": "seizure score", "value": 0}
{"SMILES": "Cc1ccc(O)c(C)c1-c1cnc2[nH]c(-c3cnc(N4CCC(CN5CCN(c6ccc(C(=O)NC7CCC(=O)NC7=O)c(F)c6)CC5)CC4)nc3)cc2c1C#N (racemic)", "tested on": "Membrane-associated tyrosine- and threonine-specific cdc2-inhibitory kinase (PKMYT1, Homo sapiens, UniProt Q99640)", "test": "binding, HTRF", "setting": "0.051 nM", "measurement": "inhibition", "value": "-9.11% and -9.38%"}
{"SMILES": "N=C(N)NCCCCCCN1CC[C@]23c4c5ccc(O)c4O[C@H]2c2[nH]c4ccccc4c2C[C@@]3(O)[C@H]1C5", "tested on": "Kappa-type opioid receptor, with Gi1 (OPRK1, Homo sapiens, UniProt P41145)", "test system": "human cells", "measurement": "EC50", "value": "450 nM"}
{"SMILES": "COc1cc(C(=O)OCCCN2CCCN(CCCOC(=O)c3cc(OC)c(OC)c(OCc4ccc([N+](=O)[O-])cc4)c3)CC2)cc(OC)c1OC", "test system": "CD-1 mice, male, brain", "setting": "subcutaneous, 30 mg/kg, 0.1667 h", "measurement": "concentration", "value": "53.9 ng/mL"}
{"note": "Repeated from above (further values, each from its own experiment):"}
{"SMILES": "COc1cc(C(=O)OCCCN2CCCN(CCCOC(=O)c3cc(OC)c(OC)c(OCc4ccc([N+](=O)[O-])cc4)c3)CC2)cc(OC)c1OC", "test system": "CD-1 mice, male, brain", "setting": "subcutaneous, 30 mg/kg, 0.1667 h", "measurement": "concentration", "value": "53.9 ng/mL"}
